Published values pooled from the literature.
A part holds a random share of what one study measured.
UniProt Q13163, sequence (whole entry, looked up): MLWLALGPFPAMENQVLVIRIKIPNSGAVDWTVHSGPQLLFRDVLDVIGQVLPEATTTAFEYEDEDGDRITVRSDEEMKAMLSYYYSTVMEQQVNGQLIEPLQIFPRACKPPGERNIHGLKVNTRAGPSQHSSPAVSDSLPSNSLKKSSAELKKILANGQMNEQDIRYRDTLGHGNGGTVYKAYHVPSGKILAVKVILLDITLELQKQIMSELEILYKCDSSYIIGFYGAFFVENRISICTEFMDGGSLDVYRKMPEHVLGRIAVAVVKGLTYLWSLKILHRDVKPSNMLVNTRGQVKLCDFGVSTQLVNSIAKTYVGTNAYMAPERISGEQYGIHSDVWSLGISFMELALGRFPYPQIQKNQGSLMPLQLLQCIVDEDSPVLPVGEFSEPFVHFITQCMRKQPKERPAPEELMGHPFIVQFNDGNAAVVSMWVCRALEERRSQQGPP

Study 1
Target: Proto-oncogene tyrosine-protein kinase Src (SRC, Homo sapiens, UniProt P12931)
Read-out: enzyme activity
Action: inhibitor
Concentration: 0.5 µM
Reference: control
For `CC[n+]1c(/C=C/N(C)c2ccccc2)n(-c2ccccc2)c2ccc(-c3nc4ccccc4s3)cc21`, the remaining activity was 94.5%.
For `O=C1NC(=O)C(c2c[nH]c3ccccc23)=C1c1c[nH]c2ccccc12`, the remaining activity was 93.7%.
For `Nc1nc(Nc2ccc(S(N)(=O)=O)cc2)nn1C(=O)c1c(F)cccc1F`, the remaining activity was 76.3%.
The remaining activity of `COc1cc(Nc2c(C#N)cnc3cc(OCCCN4CCN(C)CC4)c(OC)cc23)c(Cl)cc1Cl` is reported as 6.05%.
`Nc1nccc(-c2c(-c3ccc(F)cc3)ncn2C2CCNCC2)n1` has a remaining activity of 94.2%.
`Cc1ccc(NC2=CC(=O)c3sc(C)nc3C2=O)cc1` gave a remaining activity of 79.6%.
With `O=S(=O)(NCCNC/C=C/c1ccc(Br)cc1)c1cccc2cnccc12` the remaining activity was 90.1%.
For `CC(C)(C)n1nc(Cc2cccc3ccccc23)c2c(N)ncnc21`, the remaining activity was 67.3%.
With `O=C1Cc2c([nH]c3ccc([N+](=O)[O-])cc23)-c2ccccc2N1` the remaining activity was 39.7%.
For `NC(=O)c1ccc(N(C(N)=O)c2c(F)cccc2F)nc1-c1ccc(F)cc1F`, the remaining activity was 109%.
`N#CC(=C(N)Sc1ccc(N)cc1)c1ccccc1C(F)(F)F` gave a remaining activity of 94.1%.
The remaining activity of `Fc1ccc(-c2nc3n(c2-c2ccncc2)CCS3)cc1` is reported as 98.2%.
With `Cc1cncc2cccc(S(=O)(=O)N3CCCN(C(=O)CN)C[C@@H]3C)c12` the remaining activity was 93.6%.
The remaining activity of `Oc1ccc(Nc2nc(-c3ccc(Cl)cc3)cs2)cc1` is reported as 95.1%.
`CSc1nc(-c2ccnc(N[C@@H](C)c3ccccc3)c2)c(-c2ccc(F)cc2)[nH]1` (racemic) has a remaining activity of 99%.
For `CCCC(=O)Oc1ccc2[nH]c(C(=O)c3cc4ccccc4[nH]3)cc2c1`, the remaining activity was 97%.
`CC#CC(=O)Nc1cc2c(Nc3ccc(F)c(Cl)c3)ncnc2cn1` has a remaining activity of 97.7%.
`CCc1[nH]c(-c2ccc(OC)cc2)nc1-c1ccncc1` has a remaining activity of 95.3%.
The remaining activity of `COc1ccc(S(=O)(=O)N(CCO)c2ccccc2CN(C)CC=Cc2ccc(Cl)cc2)cc1` is reported as 92.7%.
With `Nc1ncnc2c1cnn2-c1ccccc1` the remaining activity was 96.9%.
`CC(=O)c1ccc(N2CCOCC2)cc1O` has a remaining activity of 104%.

Study 2
Species: mouse
Matrix: microsomes or S9
Concentration: 2 µM
Time: 0.5 h
The remaining compound of `COc1cc(=O)n2c(c1C(=O)NCc1ccc(F)cc1)CCCC2` is reported as 53.3%.
`CCC(CC)C(=O)N(Cc1ccccc1)Cc1nc(N(C)C)ncc1-c1ccccn1` has a remaining compound of 0.873%.
`CSC1CC2CCC(C1)N2C(=O)c1cc(C2CC2)on1` (stereo not shown) has a remaining compound of 0.117%.
With `Cc1cc(-c2nnc(Cn3cnc4c3c(=O)n(C)c(=O)n4C)o2)c(C)o1` the remaining compound was 33.6%.
The remaining compound of `N#Cc1c(-c2ccccc2)cc(O)n2c1nc1ccccc12` is reported as 2.55%.
`O=C(NC1=C(C(=O)c2ccccc2)N(Cc2ccccc2)S(=O)(=O)c2ccccc21)c1ccccc1` gave a remaining compound of 0.804%.
The remaining compound of `CC1(C)CCN(C(=O)c2cc(C#N)cs2)c2cc(Br)ccc21` is reported as 56.9%.
`CCOC(=O)c1[nH]c(C)c(C(=O)CN2C(=O)NC(C)(C)C2=O)c1C` gave a remaining compound of 17.7%.
For `CN(C(=O)CN1N=C(c2ccccc2)Cn2c(cc3ccccc32)C1=O)C1CCCCC1`, the remaining compound was 2.48%.
The remaining compound of `CS(=O)(=O)N(Cc1ccco1)Cc1ccc(C(=O)O)o1` is reported as 79.6%.
With `COCc1cc(C)nc2sc(C3=NC(C)(C)Cc4cc(OC)c(OC)cc43)c(N)c12` the remaining compound was 0.0525%.
For `COc1cc(=O)n(C)cc1C(=O)N1CCN(S(=O)(=O)C2CC2)CC1`, the remaining compound was 72.9%.

Study 3
Organism: Sarcocystis neurona
Read-out: parasite growth
Concentration: 10 µM
Time: 96 h
Setting: first screen
Reference: untreated
`C[C@]12CCC(=O)C=C1CC[C@@H]1[C@@H]2[C@@H](O)C[C@@]2(C)[C@H]1CC[C@]2(O)C(=O)CO` — result for “log2 fold change”: -0.27.
`CN(C)CCC[C@@]1(c2ccc(F)cc2)OCc2cc(C#N)ccc21` — result for “log2 fold change”: -0.32.
Under “log2 fold change”, `Oc1ccc(/C=C/c2cc(O)cc(O)c2)cc1` is recorded as 0.14.
For `CN(C)CC/C=C1/c2ccccc2COc2ccc(CC(=O)O)cc21`, “log2 fold change” read -0.18.
Under “log2 fold change”, `CCC(=O)O[C@]1(C(=O)CCl)[C@@H](C)C[C@H]2[C@@H]3CCC4=CC(=O)C=C[C@]4(C)[C@@]3(F)[C@@H](O)C[C@@]21C` is recorded as -0.32.
For `Cc1cnc(C(=O)NCCc2ccc(S(=O)(=O)NC(=O)NC3CCCCC3)cc2)cn1`, “log2 fold change” read 0.31.
Under “log2 fold change”, `CCN(CC)CC1CCCCN1CC(=O)N1c2ccccc2C(=O)Nc2cccnc21` (stereo not shown) is recorded as 0.0237.
Under “log2 fold change”, `C[C@H](CCC(=O)O)[C@H]1CC[C@H]2[C@@H]3C(=O)C[C@@H]4CC(=O)CC[C@]4(C)[C@H]3CC(=O)[C@]12C` is recorded as -0.14.
For `C#C[C@]1(OC(C)=O)CC[C@H]2[C@@H]3CCC4=CC(=O)CC[C@@H]4[C@H]3CC[C@@]21C`, “log2 fold change” read 0.08.
For `OCc1cc(C(O)CNCCCCCCOCCCCc2ccccc2)ccc1O` (stereo not shown), “log2 fold change” read -0.49.
For `Nc1ccn([C@@H]2O[C@H](CO)[C@@H](O)[C@@H]2O)c(=O)n1`, “log2 fold change” read 0.27.
`O=C1N[C@H](C(=O)O)CS1` — result for “log2 fold change”: 0.16.

Other studies, line by line
`Cc1cc(Nc2nccc(C)n2)cc(-c2cnc([C@@]3(O)CC[C@H](C(=O)O)C(C)(C)C3)s2)c1` has a remaining binding of 25.2% (Dual specificity mitogen-activated protein kinase kinase 5 (MAP2K5, Homo sapiens, UniProt Q13163); binding, competition with immobilised ligand; 1 µM).

A few entries again (study 3):
For `C#C[C@]1(OC(C)=O)CC[C@H]2[C@@H]3CCC4=CC(=O)CC[C@@H]4[C@H]3CC[C@@]21C`, “log2 fold change” read 0.08.
Under “log2 fold change”, `C[C@H](CCC(=O)O)[C@H]1CC[C@H]2[C@@H]3C(=O)C[C@@H]4CC(=O)CC[C@]4(C)[C@H]3CC(=O)[C@]12C` is recorded as -0.14.
For `Nc1ccn([C@@H]2O[C@H](CO)[C@@H](O)[C@@H]2O)c(=O)n1`, “log2 fold change” read 0.27.
For `Cc1cnc(C(=O)NCCc2ccc(S(=O)(=O)NC(=O)NC3CCCCC3)cc2)cn1`, “log2 fold change” read 0.31.
Under “log2 fold change”, `CCN(CC)CC1CCCCN1CC(=O)N1c2ccccc2C(=O)Nc2cccnc21` (stereo not shown) is recorded as 0.0237.
For `CN(C)CC/C=C1/c2ccccc2COc2ccc(CC(=O)O)cc21`, “log2 fold change” read -0.18.
